Results collected from several papers.
Lines come from different studies, so protocols differ. Values joined by “and” are separate records of one study, mostly repeats; a detail may differ. Numbers after ± are the reported error.
PPO3: PPO3 (Agaricus bisporus, UniProt C7FF04)
Gria2/Glutamate receptor 3: Gria2/Glutamate receptor 3 (Rattus norvegicus, UniProt P19491+P19492)
USP14: Ubiquitin carboxyl-terminal hydrolase 14 (USP14, Homo sapiens, UniProt P54578)

C=CC(=O)N1CCCC(n2c(=O)c3ncccc3n(Cc3ccc(Oc4ccccc4)cc3)c2=O)C1 (centres unmarked) — melting temperature (Protein phosphatase 1 regulatory subunit 7 (Homo sapiens, UniProt Q15435); thermal proteome profiling, measured: PPP1R7; treated): 50.4 °C and 46.6 °C
CC(=O)NCCN(c1nc(NCc2n[nH]c3c2CCCC3)nc(N2CC3C(CCOc4cc(-c5scnc5C)ccc4CNC(=O)[C@@H]4C[C@@H](O)CN4C(=O)[C@@H](NC(=O)C4(F)CC4)C(C)(C)C)C3C2)n1)C(C)C (some centres unmarked) — ternary complex formation (VHL/BRD9, with Elongin B/C (Homo sapiens, UniProt P40337+Q9H8M2); native mass spectrometry; 5 µM, with: BRD9 and VCB at 5 µM; relative to: unbound BRD9): 72%
N[C@H]1CC[C@H](Nc2nccc(-c3cccnc3Oc3ccc(NC(=O)NC4CC4)c4ccccc34)n2)CC1 — log2 LFQ intensity (TOP2B (Homo sapiens, UniProt Q02880); kinobead competition pulldown; HEK293/HCT116 lysate mixture; 10 µM, 1 h, 4 °C; lower = stronger competition): 20.3 and 18.3 and 19.8 and 21
COc1cc(Nc2nccc(-c3cnn4nc(OC)ccc34)n2)cc(C(F)(F)F)c1 — remaining binding (PIK3CA (Homo sapiens, UniProt P42336, E542K); binding; 1 µM): 100%
[2H]C([2H])([18F])Oc1cc(C(=O)OCC2CCN(CCCC)CC2)ccc1N — affinity ratio (SIGMAR1 (Homo sapiens, UniProt Q99720); NIMH-PDSP radioligand binding; relative to: [11C]RX-1): ~2 fold
Brc1cccc(-c2cc(CN3c4ccccc4C=Cc4ccccc43)on2)c1 — apparent Vmax (PPO3; enzyme activity, inhibitor; concentration not given): 34.1 µmol/min
COC(=O)Cc1cc2c(cc1C(=O)c1ccccc1I)OCO2 — current amplitude after recovery (Gria2/Glutamate receptor 3; glutamate-evoked current, whole-cell patch clamp; HEK-293T; concentration not given, glutamate alone after washout, with: glutamate): 450 ± 29 pA
Cc1cc(C(=O)Nc2nc3cccc(C)c3n2[C@H]2CCCCN(C(=O)/C=C/CN(C)C)C2)ccn1 — kinase activity (CDC2-like kinase 1 (Trypanosoma brucei brucei, UniProt Q382U0); ADP-Glo; 2.5 µM): -3.92% and -3.87%
O=C1c2sc(-c3ccc(N4CCC(F)C4)nc3F)nc2CCN1c1cccnc1 (centres unmarked) — specific binding (TAR DNA-binding protein 43, aggregated (TARDBP, Homo sapiens, UniProt Q13148); radioligand binding; human, FTLD-TDP type B sarkosyl-insoluble extract; 200 nM): 3.93 nM
CC(=O)Nc1ccc2nc(C)sc2c1 — inhibition (USP14; enzyme activity, inhibitor; 17 µM): 62%
COC(=O)Cc1cc2c(cc1C(=O)c1ccccc1Br)OCO2 — current amplitude (Gria2/Glutamate receptor 3; glutamate-evoked current, whole-cell patch clamp; HEK-293T; concentration not given, pH 7.4, holding potential -60 mV, with: 10 mM glutamate): 235 ± 22 pA
Cn1c(=O)n(C2CCC(=O)NC2=O)c2ccc(C3CCN(CC(=O)Nc4cccc(CS(=O)(=O)N5CC[C@H](Nc6cccc(-c7sc(C(=O)O)c(OCC(=O)O)c7Cl)c6)CC5(C)C)c4)CC3)cc21 (some centres unmarked) — remaining protein (Tyrosine-protein phosphatase non-receptor type 1 (Mus musculus, UniProt P35821); degrader, Western blot; B16-F10; 10 µM): 0.5% and 0.7%
CCOC(=O)C(C(=O)c1ccccc1)C1(O)C(=O)c2ccccc2C1=O (centres unmarked) — inhibition (USP14; enzyme activity, inhibitor; 17 µM): 48%
CC(C)Oc1cc(Cl)ccc1CNc1cc(-c2ccccc2)nc2ncnn12 — cAMP luminescence (GPR3 (Homo sapiens, UniProt P46089, Q215A); cAMP level, cAMP GloSensor; 100 nM; higher = more cAMP): 28800 a.u. and 25400 a.u. and 37700 a.u. and 32800 a.u. and 31900 a.u.
CCCC[C@H](NC(=O)[C@H](CCC(N)=O)NC(=O)[C@H](CCC(=O)O)NC(=O)[C@@H]1CCCN1C(=O)[C@@H](NC(=O)[C@H](C)NC(=O)[C@H](CC(N)=O)NC(=O)[C@H](CC(=O)O)NC(=O)CNC(=O)[C@@H]1CCCN1C(=O)[C@H](Cc1ccc(O)cc1)NC(=O)[C@@H](NC(=O)[C@@H]1CCCN1C(=O)[C@H](CCC(=O)O)NC(=O)[C@H](CC(C)C)NC(=O)[C@@H]1CCCN1C(=O)[C@H](C)N)C(C)C)[C@@H](C)O)C(=O)N[C@@H](C)C(=O)N[C@@H](CCC(N)=O)C(=O)N[C@@H](Cc1ccc(O)cc1)C(=O)N[C@@H](C)C(=O)N[C@@H](CCCCNC(=O)c1ccc2c(c1)C(=O)OC21c2ccc(N(C)C)cc2Oc2cc(N(C)C)ccc21)C(=O)N[C@@H](CC(=O)O)C(=O)N[C@@H](CC(C)C)C(=O)N[C@@H](CCCNC(=N)N)C(=O)N[C@@H](CCCNC(=N)N)C(=O)N[C@@H](Cc1ccc(O)cc1)C(=O)N[C@H](C(=O)N[C@@H](CC(N)=O)C(=O)N[C@@H](CCCC)C(=O)N[C@@H](CC(C)C)C(=O)N[C@H](C(=O)N[C@@H](CCCNC(=N)N)C(=O)N1CCC[C@H]1C(=O)N[C@@H](CCCNC(=N)N)C(=O)N[C@@H](Cc1ccc(O)cc1)C(N)=O)[C@@H](C)O)[C@@H](C)CC — BRETmax (NPY4R (Homo sapiens, UniProt P50391, T98A); NanoBRET binding; Nluc-tagged receptor T98A, unit not given; net BRET ratio): 0.045 ± 0.0014
CCCCCCCCO[C@@H]1O[C@H](CO)[C@H](O)[C@H](O)[C@H]1O[C@@H]1O[C@@H](C)[C@@H](O)[C@@H](O)[C@@H]1O — koff (ABO (Homo sapiens, UniProt P16442, G235S/G268A/L266M/R176G/W181M); methyl-TROSY NMR titration lineshape analysis; apo mutant enzyme): 1520 ± 60 s⁻¹
CCCCCC=CC=C1C(=O)C=CC1CC=CCCCC(=O)O (centres unmarked) — isoTOP-ABPP competition ratio (Ketosamine-3-kinase, C24 (FN3KRP, Homo sapiens, UniProt Q9HA64); competitive isoTOP-ABPP; Ramos soluble proteome; 100 µM, 60 min, with: iodoacetamide probe; relative to: DMSO over compound-treated, higher = stronger cysteine blockade): 2.1
O=C(O)C1CCCN(CC=CCC(c2ccccc2)(c2ccccc2)c2ccccc2)C1 (centres unmarked) — remaining signal (SLC6A9 (Homo sapiens, UniProt P48067); cell-free assay; 1 µM): 104%
C#CCOC(=O)[C@@]1(C)C=C(C(=O)Nc2cccc(C(=O)Nc3ccc(C)c(Nc4nccc(-c5cccnc5)n4)c3)c2)C(=O)CC1 — remaining activity (MAPK9 (Homo sapiens, UniProt P45984); enzyme activity, inhibitor; 44.44 µM, unit not given; relative to: vehicle): 0.044
Oc1cc(O)c2cc(O[C@@H]3OC[C@H](O)[C@H](O)[C@H]3O)c(-c3ccc(O)c(O)c3)[o+]c2c1 — binding entropy (PPO3; fluorescence quenching; concentration not given): -174 ± 0.78 J/(mol·K)
Nc1ncc2c(n1)-c1c([nH]c3ccc(C4=CCOCC4)cc13)CCC2 — remaining binding (Tyrosine-protein kinase ABL1, phosphorylated (ABL1, Homo sapiens, UniProt P00519, F317I); binding, competition with immobilised ligand; 1 µM): 100%
CC[C@@H](C)[C@@H](NC(=O)[C@@H](Cc1ccc(O)cc1)NC(=O)[C@H]1CCCN1C(=O)[C@@H](CCCNC(=N)N)NC(=O)[C@H](N)Cc1c[nH]cn1)C(=O)N[C@H](C)C(=O)N[C@H](Cc1c[nH]cn1)C(=O)NCC(=O)NCC(=O)NCC(=O)N[C@@H](CCCCNC(=O)CCCC[C@@H]1SC[C@@H]2NC(=O)N[C@@H]21)C(N)=O — binding rate (Cd274 (Mus musculus, UniProt Q9EP73); flow cytometry; mPD-L1-expressing cells; concentration not given): 0.37% and 0.4% and 0.53%
O=C1Nc2ccccc2/C1=N/N=C1\C(=O)Nc2ccccc21 — inhibition (USP14; enzyme activity, inhibitor; 17 µM): 63%

Repeated from above:
CC(=O)Nc1ccc2nc(C)sc2c1 — inhibition (USP14; enzyme activity, inhibitor; 17 µM): 62%
CC(C)Oc1cc(Cl)ccc1CNc1cc(-c2ccccc2)nc2ncnn12 — cAMP luminescence (GPR3 (Homo sapiens, UniProt P46089, Q215A); cAMP level, cAMP GloSensor; 100 nM; higher = more cAMP): 28800 a.u. and 25400 a.u. and 37700 a.u. and 32800 a.u. and 31900 a.u.
